{"data": "Assay results from different studies", "note": "Parts stem from different laboratories: compare values within a part only. Substitutions count along the parent as printed."}
{"data": "Block 1", "target": "CCNE2, cyclin fold, Cln2 fusion (human)", "technique": "yeast growth competition, sequencing", "sample": "yeast", "setting": "weak parent motif", "baseline": "not given", "reading": "higher = stronger binding", "starting sequence": "SLBP docking peptide (human); ARYKRKLLINDFG; partner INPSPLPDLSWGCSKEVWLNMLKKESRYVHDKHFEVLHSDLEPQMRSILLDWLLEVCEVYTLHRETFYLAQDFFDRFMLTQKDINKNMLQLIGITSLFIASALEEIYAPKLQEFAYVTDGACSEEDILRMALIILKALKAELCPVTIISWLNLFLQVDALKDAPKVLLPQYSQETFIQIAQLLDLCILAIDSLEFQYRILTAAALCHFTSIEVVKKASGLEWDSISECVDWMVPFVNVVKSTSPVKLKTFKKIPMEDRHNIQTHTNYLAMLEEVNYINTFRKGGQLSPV"}
{"Substitution": "F12Q", "normalised enrichment score": 0.297}
{"Substitution": "R5M", "normalised enrichment score": 1.49}
{"Substitution": "R5T", "normalised enrichment score": 0.485}
{"Substitution": "R2L", "normalised enrichment score": 1.1}
{"Substitution": "K4W", "normalised enrichment score": 1.6}
{"Substitution": "R2D", "normalised enrichment score": 0.806}
{"Substitution": "D11F", "normalised enrichment score": 0.792}
{"Substitution": "K6E", "normalised enrichment score": 0.617}
{"Substitution": "K6P", "normalised enrichment score": -0.183}
{"Substitution": "K4I", "normalised enrichment score": 0.38}
{"Substitution": "R5L", "normalised enrichment score": 0.932}
{"Substitution": "L8W", "normalised enrichment score": 1.14}
{"Substitution": "I9H", "normalised enrichment score": 0.617}
{"Substitution": "R5P", "normalised enrichment score": 0.446}
{"Substitution": "F12I", "normalised enrichment score": 0.244}
{"Substitution": "R5K", "normalised enrichment score": 0.599}
{"Substitution": "Y3S", "normalised enrichment score": 1.62}
{"Substitution": "K6Y", "normalised enrichment score": 0.779}
{"data": "Block 2", "target": "Interferon regulatory factor 5, full length, phosphomimetic (IRF5, Homo sapiens, UniProt Q13568-2, residues 1-514, K96S/S451D/S453D/S456D/S462D)", "technique": "protein-binding microarray", "form": "double-stranded DNA, one strand shown", "sample": "in vitro", "concentration": "250 nM", "setting": "60-bp whole probe", "together with": "salmon DNA 0.4 mg/ml", "baseline": "random background probes", "reading": "higher = stronger binding", "shared flanks, not repeated": "GCCTAGCAC … GTCTTGATTCGCTTGACGCTGCTG"}
{"Strand": "GACGATCTCAGTTACGAGACGTGCTAG", "log fluorescence": "0.0608 z-score"}
{"Strand": "GACGGACAGCTACTGCTGACGTGCTAG", "log fluorescence": "-0.6 z-score"}
{"Strand": "TTAGAAATCGGGTTTCGATTAGTGCTA", "log fluorescence": "7.78 z-score"}
{"Strand": "GACCAACTGGGGTATCGAGACGTGCTA", "log fluorescence": "0.168 z-score"}
{"Strand": "TTAGGACTGGGTATCGTTTAGTGCTAG", "log fluorescence": "0.982 z-score"}
{"Strand": "TTAGAACTTGGGTATCGATTAGTGCTA", "log fluorescence": "3.97 z-score"}
{"Strand": "TCATACTTCTGTTTTTGACTGTGCTAG", "log fluorescence": "0.821 z-score"}
{"Strand": "TTCTACTTCTCTTTTGGCTTGTGCTAG", "log fluorescence": "1.27 z-score"}
{"Strand": "GACGAACTGAGTCTCGACACGTGCTAG", "log fluorescence": "0.0274 z-score"}
{"Strand": "GACAGTCTCGGTTTCGGGACGTGCTAG", "log fluorescence": "4.72 z-score"}
{"Strand": "TTAGCTCTCGGTCTCGGTTAGTGCTAG", "log fluorescence": "1.22 z-score"}
{"Strand": "TTCCAATTCTCTTTTCACTTGTGCTAG", "log fluorescence": "2.14 z-score"}
{"Strand": "GAGGGTATCGGGTTTCGGGACGTGCTA", "log fluorescence": "3.29 z-score"}
{"Strand": "TTAGGTATCCTTTACCTTTAGTGCTAG", "log fluorescence": "0.113 z-score"}
{"Strand": "GACGGTTTCGACTATCTGGACGTGCTA", "log fluorescence": "6.63 z-score"}
{"Strand": "TCACCTTTCTGCCTCAGACTGTGCTAG", "log fluorescence": "1.67 z-score"}
{"Strand": "GACGGACTGCTTTTCATGACGTGCTAG", "log fluorescence": "0.0539 z-score"}
{"Strand": "TTAGGTATGGGGTTTCGGTTAGTGCTA", "log fluorescence": "6.52 z-score"}
{"Strand": "TTAGGTATCAGGTTTCGGTTAGTGCTA", "log fluorescence": "8.25 z-score"}
{"data": "Block 3", "target": "Homeobox protein Hox-C11, full length (HOXC11, Homo sapiens, UniProt O43248, residues 1-304)", "technique": "protein-binding microarray", "form": "hairpin DNA", "sample": "in vitro", "concentration": "not given", "setting": "whole hairpin DNA, median over replicate spots", "baseline": "not given", "reading": "higher = stronger binding", "UniProt O43248, sequence (whole entry, looked up)": "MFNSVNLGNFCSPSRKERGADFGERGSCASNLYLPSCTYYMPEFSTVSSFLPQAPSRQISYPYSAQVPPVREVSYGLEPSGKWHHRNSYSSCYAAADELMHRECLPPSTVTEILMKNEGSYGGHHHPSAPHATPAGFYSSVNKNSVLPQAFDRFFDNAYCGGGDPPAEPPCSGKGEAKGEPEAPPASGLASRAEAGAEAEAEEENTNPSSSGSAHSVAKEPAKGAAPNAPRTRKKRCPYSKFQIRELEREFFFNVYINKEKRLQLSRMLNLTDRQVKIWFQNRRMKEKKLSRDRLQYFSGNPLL"}
{"Strand": "GAGGCCAGGTCGTGAAAGCCTCCTGGCTTTCACGACCTGGCCTCACACTC", "median fluorescence": "10800 a.u."}
{"Strand": "GAGGCCAGGTCGTAAAAGCCTCCTGGCTTTTACGACCTGGCCTCACACTC (5mC at 11 33)", "median fluorescence": "10300 a.u."}
{"Strand": "GAGGCCATGTCGTTAAAGCCTCCTGGCTTTAACGACATGGCCTCACACTC", "median fluorescence": "9290 a.u."}
{"Strand": "GAGGCCAGGTCGTCGAAGCCTCCTGGCTTCGACGACCTGGCCTCACACTC (5mC at 14 30)", "median fluorescence": "10700 a.u."}
{"Strand": "GAGGCCCGGTCGTAAAAGCCTCCTGGCTTTTACGACCGGGCCTCACACTC (5mC at 37)", "median fluorescence": "10600 a.u."}
{"Strand": "GAGGCCAGGTCGTAAAGGCCTCCTGGCCTTTACGACCTGGCCTCACACTC", "median fluorescence": "10200 a.u."}
{"Strand": "GAGGCCAGGTCATAAAAGCCTCCTGGCTTTTATGACCTGGCCTCACACTC", "median fluorescence": "8890 a.u."}
{"Strand": "GAGGCCAGGTCTTAAAAGCCTCCTGGCTTTTAAGACCTGGCCTCACACTC", "median fluorescence": "7850 a.u."}
{"Strand": "GAGGCCAGGTGGTAAAAGCCTCCTGGCTTTTACCACCTGGCCTCACACTC (5mC at 34)", "median fluorescence": "9390 a.u."}
{"Strand": "GAGGCCAGGTCGTCGAAGCCTCCTGGCTTCGACGACCTGGCCTCACACTC (5mC at 14)", "median fluorescence": "10200 a.u."}
{"Strand": "GAGGCCACGTCGTTAAAGCCTCCTGGCTTTAACGACGTGGCCTCACACTC", "median fluorescence": "9180 a.u."}
{"Strand": "GAGGCCAGGTCGCGAAAGCCTCCTGGCTTTCGCGACCTGGCCTCACACTC", "median fluorescence": "11100 a.u."}
{"Strand": "GAGGCCAGGTCGTAAAGGCCTCCTGGCCTTTACGACCTGGCCTCACACTC (5mC at 28)", "median fluorescence": "10600 a.u."}
{"Strand": "GAGGCCAGATCGTAAAAGCCTCCTGGCTTTTACGATCTGGCCTCACACTC", "median fluorescence": "9230 a.u."}
{"Strand": "GAGGCCAGGTCGTTAGAGCCTCCTGGCTCTAACGACCTGGCCTCACACTC", "median fluorescence": "10300 a.u."}
{"Strand": "GAGGCCAGGTCGTTCGAGCCTCCTGGCTCGAACGACCTGGCCTCACACTC", "median fluorescence": "10700 a.u."}
{"Strand": "GAGGCCAGGTAGTAAAAGCCTCCTGGCTTTTACTACCTGGCCTCACACTC", "median fluorescence": "9370 a.u."}
{"Strand": "GAGGCCAGGTCGTTACGGCCTCCTGGCCGTAACGACCTGGCCTCACACTC (5mC at 28)", "median fluorescence": "11500 a.u."}
{"data": "Block 4", "target": "Centromere-binding protein 1, full length, N-terminal tag (CBF1, Saccharomyces cerevisiae, UniProt P17106, residues 1-351)", "technique": "protein-binding microarray", "form": "double-stranded DNA, one strand shown", "sample": "in vitro", "concentration": "0.8 µM", "setting": "whole 60-bp probe, no competitor", "reading": "higher = stronger binding", "shared flanks, not repeated": "… GTCTTGATTCGCTTGACGCTGCTG", "UniProt P17106, sequence (whole entry, looked up)": "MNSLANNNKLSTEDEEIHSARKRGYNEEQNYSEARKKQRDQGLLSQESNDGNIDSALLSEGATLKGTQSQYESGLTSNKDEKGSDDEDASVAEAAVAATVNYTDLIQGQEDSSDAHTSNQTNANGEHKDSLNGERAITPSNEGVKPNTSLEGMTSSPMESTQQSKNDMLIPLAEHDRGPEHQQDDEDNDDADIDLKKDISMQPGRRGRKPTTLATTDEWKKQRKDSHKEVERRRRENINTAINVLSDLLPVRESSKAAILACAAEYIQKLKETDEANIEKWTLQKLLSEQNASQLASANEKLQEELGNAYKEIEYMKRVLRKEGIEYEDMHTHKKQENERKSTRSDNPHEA"}
{"Strand": "TGTACGAAGCTATTACATGTGTCTATAGTAGTTAGG", "fluorescence intensity": "583 a.u."}
{"Strand": "GAAGACAATTGTTGCCTCGTGGCGGGGCTATTTTAG", "fluorescence intensity": "574 a.u."}
{"Strand": "GAAGTTAATAAACCACACGTTGGTTATTTAGATTAG", "fluorescence intensity": "535 a.u."}
{"Strand": "TGTACGAAGCTATATCACAACAGTATAGTAGTTAGG", "fluorescence intensity": "583 a.u."}
{"Strand": "GAAATAGTATACAGGTGATTCTTATTTATCCCATAG", "fluorescence intensity": "975 a.u."}
{"Strand": "GAAAGTAGTTTTCAGCGCGTGGTTAAGCTATTTTAG", "fluorescence intensity": "560 a.u."}
{"Strand": "CTATACTTTTAATATCACGATGCTGTCTCTGAATTC", "fluorescence intensity": "732 a.u."}
{"Strand": "GAATGGTGAATTTACAACGTGTTCAATATACTTTAG", "fluorescence intensity": "672 a.u."}
{"Strand": "CTACTGGCAAAACACCACCAAAGCCAGCCAAATTTC", "fluorescence intensity": "527 a.u."}
{"Strand": "GAAAGTAGTTCGGTGCTCGTGACAAACCTTTTTTAG", "fluorescence intensity": "1230 a.u."}
{"Strand": "TGTACGAAGCTATAGCACGTAACTATAGTAGTTAGG", "fluorescence intensity": "529 a.u."}
{"Strand": "GAATTTCGTCATCCCCACGTTGTGCCATTAATTTAG", "fluorescence intensity": "625 a.u."}
{"Strand": "CTAGCATATTTGTAAAACGTGCAAAAAAGTAAATTC", "fluorescence intensity": "778 a.u."}
{"Strand": "GAATCGACTAGTATTCACGTTACTAGTATATTCTAG", "fluorescence intensity": "910 a.u."}
{"Strand": "CTACAAAGTGGCTGTGACATCTAGTATTGATAGTTC", "fluorescence intensity": "518 a.u."}
{"Strand": "GAACCTGGCAAGCACAACGTGTGACACAGAAGATAG", "fluorescence intensity": "789 a.u."}
{"Strand": "GAATAGTTCTAGCGACACGTCCTATTCATATATTAG", "fluorescence intensity": "508 a.u."}
{"Strand": "CTAATATTGACGCCAAGCGTGCGTCTGATTTCTTTC", "fluorescence intensity": "518 a.u."}
{"Strand": "CTAAATTGCCTTAGCCACGTAATATGTGCCTTTTTC", "fluorescence intensity": "503 a.u."}
{"note": "Some of these lines once more (block 1):"}
{"Substitution": "F12I", "normalised enrichment score": 0.244}
{"Substitution": "R2L", "normalised enrichment score": 1.1}
{"Substitution": "Y3S", "normalised enrichment score": 1.62}
{"Substitution": "R5M", "normalised enrichment score": 1.49}
{"Substitution": "R2D", "normalised enrichment score": 0.806}
{"Substitution": "R5T", "normalised enrichment score": 0.485}
{"Substitution": "R5P", "normalised enrichment score": 0.446}
{"Substitution": "F12Q", "normalised enrichment score": 0.297}
{"Substitution": "K6Y", "normalised enrichment score": 0.779}
{"Substitution": "D11F", "normalised enrichment score": 0.792}
